Results gathered from unrelated publications.
Lines come from different studies, so protocols differ. Values joined by “and” are separate records of one study, mostly repeats; a detail may differ. Numbers after ± are the reported error.

SMILES | tested on | test | system | conditions | scale | endpoint | result
O=S(=O)(NCc1ccncc1)c1ccc(C2CCCCC2)cc1 |  | immunohistochemistry | CK-p25 mice female, hippocampus | ip, 0.3 mg/kg daily, 6 wk | relative to: vehicle | IBA1 immunoreactivity reduction | ~28%
Cc1ncsc1-c1ccc(C(C)NC(=O)C2CC(O)CN2C(=O)C(NC(=O)CCCCCCCCCCN2CCCC(Nc3ncc(Cl)c(Nc4ccccc4S(=O)(=O)C(C)C)n3)C2)C(C)(C)C)cc1 (stereo not drawn) | 22Rv1 | RNA-seq, refers to: ZHX2 mRNA |  | concentration not given | relative to: DMSO | log2 fold change | -1.51
COCCOCCOCCNC(=O)Cc1cc(CC(=O)N[C@H]2C[C@H]3C(=O)Nc4cc(OCCOCCOCCOC)cc(n4)C(=O)N4CCC[C@H]4C(=O)Nc4cc(OCCOCCOCCOC)cc(n4)C(=O)N4CCC[C@H]4C(=O)Nc4cc(OCCOCCOCCOC)cc(n4)C(=O)N3C2)cc(CC(=O)N[C@H]2C[C@H]3C(=O)Nc4cc(OCCOCCOCCOC)cc(n4)C(=O)N4CCC[C@H]4C(=O)Nc4cc(OCCOCCOCCOC)cc(n4)C(=O)N4CCC[C@H]4C(=O)Nc4cc(OCCOCCOCCOC)cc(n4)C(=O)N3C2)c1 |  | anion binding, ITC | water/acetonitrile 70 vol% (87.1 mol%) | 298 K, together with: sodium sulfate |  | ΔH | -3.107 ± 0.0239 kcal/mol
COc1ccc(C(=O)CCc2cc(C(CCc3ccc(O)cc3OC)c3ccc(O)cc3)c(O)cc2OC)cc1 (racemic) |  |  | human blood | 30 µM, together with: A23187 |  | LTB4 level | 2320 ± 987 pg/mL
CC(=O)[O-].O.O.O.O.[Mn+2].[O-]c1ccc(Br)cc1C=NCCN1CCOCC1 |  | FRAP |  | 40 µM |  | ferric reducing power | 9.74%
O=C(Nc1cnccc1-c1ccc([18F])nc1)c1ccnc(NC(=O)C2CC2)c1 |  | PET imaging | FVB/NJ mice, both sexes, liver | intravenous, 60 min, together with: tariquidar 15 mg/kg iv, ≥2 h before |  | median SUV | 7.9
CN1CCC[C@]1(C)/C=C/S(=O)(=O)NC(=O)Nc1c2c(cc3c1CCC3)CCC2 |  | IL-1β release | human, whole blood ex vivo | oral, 12.5 mg twice daily, day 14, 336 h, multiple ascending dose, together with: LPS and ATP |  | inhibition | 81.8%
C=CC(=O)Nc1cccc(Cn2ncc3cnc(Nc4cnn(CCOC)c4)nc32)c1 | TESK1 human | binding, KINOMEscan |  | 100 nM | lower = stronger binding | percent of control | 100%
COC1CN([C@H]2CC[C@H]([C@@]3(C)Oc4c(Cl)cc(C(=O)NCc5c(SC)cc(C)[nH]c5=O)c(C)c4O3)CC2)C1 |  | RNA-seq, refers to: FRMD6 mouse homolog | mouse, HT-1376 xenograft, whole blood | dose not given | relative to: vehicle | log2 fold change | 0.241
Nc1ncc(-c2cc(-c3cnn(CC(F)(F)F)c3)ncc2F)nc1C(=O)NC1CNCC(F)C1 (stereo not drawn) | PKMYT1 | KINOMEscan |  | 1 µM | relative to: DMSO control | remaining binding | 56%
COc1cc(O)ccc1CCC(c1ccc(O)cc1)c1cc2c(c(C)c1O)OC(c1ccc(O)cc1)CC2 (mixture of isomers) |  | refers to: 5-HEPE | human whole blood | 30 µM, together with: Escherichia coli |  | amount | 40 ± 8 pg/mL blood
CCCCCCCCCCCCCCCC(=O)OCC(CSC[C@H](N)C(=O)N[C@@H](CO)C(=O)N[C@@H](CCCCN)C(=O)N[C@@H](CCCCN)C(=O)N[C@@H](CCCCN)C(=O)N[C@@H](CCCCN)C(=O)NCCCCCC(=O)N[C@@H](CCCCN)C(=O)N[C@@H](CC(C)C)C(=O)N[C@H](C(=O)N[C@@H](Cc1ccccc1)C(=O)N[C@@H](Cc1ccccc1)C(=O)N[C@@H](Cc1ccc2ccccc2c1)C(=O)O)C(C)C)OC(=O)CCCCCCCCCCCCCCC (stereo partly drawn) |  |  | APP/PS1 transgenic mouse, hippocampus | intrahippocampal, dose not given, unit not given | relative to: injected over adjacent side | Iba1 level | 1.23 and 1.82 and 0.625 and 1.83

Excerpt of the above:
SMILES | tested on | test | system | conditions | scale | endpoint | result
COc1cc(O)ccc1CCC(c1ccc(O)cc1)c1cc2c(c(C)c1O)OC(c1ccc(O)cc1)CC2 (mixture of isomers) |  | refers to: 5-HEPE | human whole blood | 30 µM, together with: Escherichia coli |  | amount | 40 ± 8 pg/mL blood
